Experimental data from different studies.
Compare with care: the assays were run in different laboratories. Several values in a cell are separate wells, animals, samples, runs or records. Numbers after ± are the reported error.

`O=[N+]([O-])c1ccc(NC2CCNCC2)c(C(F)(F)F)c1` has a survival of 27.7% (Salmonella typhimurium; SOS/umu test; TA1535/pSK1002; 1 mg/mL, 4 h, without S9, full range).
`[Cl-].[Cl-].[Pt+2].[Ru+2].c1ccc(-c2nccnc2-c2ccccn2)nc1.c1cnc2c(c1)ccc1cccnc12.c1cnc2c(c1)ccc1cccnc12` has a survival rate of 90 ± 3% (Danio rerio; embryos; 30 µM, 12 h).
For `CNC(=O)c1c(N(C)N=O)ncn1C`, “revertant colonies per plate” read 125 ± 18 (Escherichia coli; plate incorporation; WP2uvrA pKM101, water; 2500 µg/plate, without S9).
With `O=[N+]([O-])c1ccc(N2CCN(CCC(O)c3ccc(F)cc3)CC2)c(C(F)(F)F)c1` (stereo not shown) the survival was 114% (Salmonella typhimurium; SOS/umu test; TA1535/pSK1002; 0.008 mg/mL, 4 h, without S9, full range).
The body weight of `CC(C)C[C@H](NC(=O)[C@H](Cc1c[nH]cn1)NC(=O)[C@H](Cc1c[nH]cn1)NC(=O)[C@H](Cc1ccc(O)cc1)NC(=O)[C@@H](N)CS)C(=O)N[C@H](C(=O)N[C@@H](CC(C)C)C(=O)N[C@H](C(=O)N[C@H](C(=O)NCC(=O)NCC(=O)N[C@@H](CO)C(=O)O)C(C)C)[C@@H](C)O)C(C)C` is reported as 20.1 g and 21.5 g (Epstein-Barr virus; B-NDG humanized mouse, EBV-infected; 20 mg/kg, day 14).
`CN(CC(C)(C)C)N=O` — result for “lowest mutagenic concentration”: 5000 µg/plate (Escherichia coli; WP2uvrA pKM101, methanol; concentration not given, plate incorporation, no S9).
`COc1cccc(-c2n[nH]c(SCc3ccccn3)n2)c1OC`: “revertant colonies per plate” 10 (Salmonella typhimurium; Ames test, plate incorporation; TA1537; 0.50 mg/plate, without S9).
`O=[N+]([O-])c1ccc(N2CCC(NCCC(O)c3ccc(F)c4ccccc34)CC2)c(C(F)(F)F)c1` (stereo not shown) has a survival of 95% (Salmonella typhimurium; SOS/umu test; TA1535/pSK1002, TGA medium; 1.53e-05 mg/mL, 4 h, together with: 10% rat liver S9).
`Cc1c(Cl)c(=O)oc2cc(OCCCC[Se]C#N)ccc12` has an embryonic lethality of 34.3% (Caenorhabditis elegans; N2 Bristol, NGM with E. coli OP50; 100 µM, 24 h).
`CC(C)N(C)N=O` — result for “revertant colonies per plate”: 155 ± 3 (Escherichia coli; mutagenicity, Ames plate incorporation; WP2 uvrA pKM101; 500 µg/plate, 3 d, without S9, methanol).
`Cc1cc(C(=O)NC(C)(C)COc2cccc3c2C(N)=NS(=O)(=O)N3)cc(C)n1` gave a revertant ratio of 1.2 (Salmonella typhimurium; Ames test, initial; TA1537; 5000 µg/plate, together with: rat liver S9; reference: solvent control).
The survival of `OC(CCN1CC=C(c2ccc(F)cc2)CC1)c1ccc(F)c2ccccc12` (stereo not shown) is reported as 118% (Salmonella typhimurium; SOS/umu test; TA1535/pSK1002; 0.001 mg/mL, 4 h, without S9, lower range).
`CC(C)N(N=O)C(C)C` — result for “revertant colonies per plate”: 178 ± 9 (Escherichia coli; mutagenicity, Ames plate incorporation; WP2 uvrA pKM101; 500 µg/plate, without S9, methanol).

Repeated from above:
The body weight of `CC(C)C[C@H](NC(=O)[C@H](Cc1c[nH]cn1)NC(=O)[C@H](Cc1c[nH]cn1)NC(=O)[C@H](Cc1ccc(O)cc1)NC(=O)[C@@H](N)CS)C(=O)N[C@H](C(=O)N[C@@H](CC(C)C)C(=O)N[C@H](C(=O)N[C@H](C(=O)NCC(=O)NCC(=O)N[C@@H](CO)C(=O)O)C(C)C)[C@@H](C)O)C(C)C` is reported as 20.1 g and 21.5 g (Epstein-Barr virus; B-NDG humanized mouse, EBV-infected; 20 mg/kg, day 14).
